Measurements collected from several papers.
Lines come from different studies, so protocols differ.
Target: Tyrosine-protein kinase JAK1 (JAK1, Homo sapiens, UniProt P23458)
Chain of UniProt P23458 (whole entry, looked up): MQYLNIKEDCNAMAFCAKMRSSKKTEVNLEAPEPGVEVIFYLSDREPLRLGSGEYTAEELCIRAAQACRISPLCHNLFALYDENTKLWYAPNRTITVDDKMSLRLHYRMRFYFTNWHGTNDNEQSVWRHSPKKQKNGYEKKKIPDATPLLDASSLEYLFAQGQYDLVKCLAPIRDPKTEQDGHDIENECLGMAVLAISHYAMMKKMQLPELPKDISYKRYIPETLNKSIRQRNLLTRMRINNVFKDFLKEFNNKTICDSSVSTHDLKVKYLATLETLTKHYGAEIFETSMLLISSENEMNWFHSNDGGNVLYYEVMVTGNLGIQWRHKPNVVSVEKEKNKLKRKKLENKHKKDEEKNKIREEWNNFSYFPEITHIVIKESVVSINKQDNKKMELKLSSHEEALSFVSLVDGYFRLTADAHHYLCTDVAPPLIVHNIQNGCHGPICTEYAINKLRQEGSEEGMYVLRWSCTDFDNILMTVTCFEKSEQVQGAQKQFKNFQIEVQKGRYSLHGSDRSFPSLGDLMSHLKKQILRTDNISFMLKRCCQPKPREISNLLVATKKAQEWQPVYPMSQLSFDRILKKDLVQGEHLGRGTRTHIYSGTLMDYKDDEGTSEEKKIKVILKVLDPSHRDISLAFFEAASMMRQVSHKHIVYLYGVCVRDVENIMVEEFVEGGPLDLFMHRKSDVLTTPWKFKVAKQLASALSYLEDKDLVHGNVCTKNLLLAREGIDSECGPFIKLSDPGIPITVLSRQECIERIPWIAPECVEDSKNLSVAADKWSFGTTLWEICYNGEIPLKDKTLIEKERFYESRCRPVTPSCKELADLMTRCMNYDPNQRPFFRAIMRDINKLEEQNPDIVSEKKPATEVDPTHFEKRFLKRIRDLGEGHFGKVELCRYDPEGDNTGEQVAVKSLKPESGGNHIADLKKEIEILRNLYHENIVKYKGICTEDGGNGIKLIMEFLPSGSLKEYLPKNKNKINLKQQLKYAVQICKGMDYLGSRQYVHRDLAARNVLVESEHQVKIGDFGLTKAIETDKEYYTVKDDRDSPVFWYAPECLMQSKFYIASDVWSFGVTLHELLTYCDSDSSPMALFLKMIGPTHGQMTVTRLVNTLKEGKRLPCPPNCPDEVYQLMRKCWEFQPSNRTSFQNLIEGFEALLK
Action: inhibitor

Cc1cnc(Nc2cc(C)c(C)c(C)c2)nc1Nc1ccc2oc(=O)[nH]c2c1  IC50 (enzyme activity): 2.4 nM
COc1ccc(-c2cccc3nc(NC(=O)C4CC4)nn23)cc1  IC50 (enzyme activity): 72 nM
COc1ccc2c(c1)C(=C1Nc3ccccc3C1=NOCC(O)CO)C(=O)N2 (centres unmarked)  IC50 (enzyme activity, radiometric): 10.4 nM
Cc1ccc2oc(-c3c4c(N)n[nH]c(=O)c4nn3-c3ccc(NC(=O)/C=C/CN(C)C)cc3)c(C)c2c1  IC50 (enzyme activity, FRET): > 1000 nM
N#C/C(=C\c1cccc(-c2cnc3[nH]cnc3c2)c1)C(N)=O  IC50 (kinase activity; up to highest tested, together with: ATP at Km): > 10000 nM
Cc1[nH]nc2c1N=C(c1ccccc1Cl)c1cnc(N3CCOCC3)cc1N2  IC50 (enzyme activity): 15 nM
CN(C(=O)c1ccn2ncc(-c3ccc(C(N)=O)cc3)c2c1)c1ccc(C#N)cn1  IC50 (enzyme activity): > 10000 nM
C=CC(=O)N1CCc2ccc(-n3c(=O)ccc4cnc5ccc(-c6cnn(C)c6)cc5c43)cc21  IC50 (enzyme activity): > 10000 nM

Some of these lines once more:
COc1ccc(-c2cccc3nc(NC(=O)C4CC4)nn23)cc1  IC50 (enzyme activity): 72 nM
